# Measured values of several laboratories.
# Each line is one published result; not all experiments were run side by side.
# B1: AIR2 1-223 C84S/C104S (Saccharomyces cerevisiae, UniProt Q12476); sequence looked up; chain MEKNTAPFVVDTAPTTPPDKLVAPSIEEVNSNPNELRALRGQGRYFGVSDDDKDAIKEAAPKCNNCSQRGHLKKDCPHIICSYSGATDDHYSRHCPKAIQCSKSDEVGHYRSQCPHKWKKVQCTLCKSKKHSKERCPSIWRAYILVDDNEKAKPKVLPFHTIYCYNCGGKGHFGDDCKEKRSSRVPNEDGSAFTGSNLSVELKQEYYRHMNRNSDENEDYQFS
# B2: POMP (Homo sapiens, UniProt Q9Y244); chain MNARGLGSELKDSIPVTELSASGPFESHDLLRKGFSCVKNELLPSHPLELSEKNFQLNQDKMNFSTLRNIQGLFAPLKLQMEFKAVQQVQRLPFLSSSNLSLDVLRGNDETIGFEDILNDPSQSEVMGEPHLMVEYKLGLL
# B3: HY5 (Arabidopsis thaliana, UniProt O24646); sequence looked up; chain MQEQATSSLAASSLPSSSERSSSSAPHLEIKEGIESDEEIRRVPEFGGEAVGKETSGRESGSATGQERTQATVGESQRKRGRTPAEKENKRLKRLLRNRVSAQQARERKKAYLSELENRVKDLENKNSELEERLSTLQNENQMLRHILKNTTGNKRGGGGGSNADASL
# B4: Pri1 (Saccharomyces cerevisiae, UniProt P10363); sequence looked up; chain MTNSVKTNGPSSSDMEYYYKSLYPFKHIFNWLNHSPKPSRDMINREFAMAFRSGAYKRYNSFNSVQDFKAQIEKANPDRFEIGAIYNKPPRERDTLLKSELKALEKELVFDIDMDDYDAFRTCCSGAQVCSKCWKFISLAMKITNTALREDFGYKDFIWVFSGRRGAHCWVSDKRARALTDVQRRNVLDYVNVIRDRNTDKRLALKRPYHPHLARSLEQLKPFFVSIMLEEQNPWEDDQHAIQTLLPALYDKQLIDSLKKYWLDNPRRSSKEKWNDIDQIATSLFKGPKQDSHIIKLRECKEDLVLMTLYPKLDVEVTKQTIHLLKAPFCIHPATGNVCVPIDESFAPEKAPKLIDLQTEMEKNNDVSLTALQPFINQFQAYVSSLLKNELGSVKREREDDDEPASLDF
# B5: IGFBP7 30-159 Q150A (Homo sapiens, UniProt Q16270); chain DTCGPCEPASCPPLPPLGCLLGETRDACGCCPMCARGEGEPCGGGGAGRGYCAPGMECVKSRKRRKGKAGAAAGGPGVSGVCVCKSRYPVCGSDGTTYPSGCQLRAASQRAESRGEKAITAVSKGTCEQG
# B6: PRDX6 (Homo sapiens, UniProt P30041); sequence looked up; chain MPGGLLLGDVAPNFEANTTVGRIRFHDFLGDSWGILFSHPRDFTPVCTTELGRAAKLAPEFAKRNVKLIALSIDSVEDHLAWSKDINAYNCEEPTEKLPFPIIDDRNRELAILLGMLDPAEKDEKGMPVTARVVFVFGPDKKLKLSILYPATTGRNFDEILRVVISLQLTAEKRVATPVDWKDGDSVMVLPTIPEEEAKKLFPKGVFTKELPSGKKYLRYTPQP
# B7: RAB32 Q85L (Homo sapiens, UniProt Q13637); sequence looked up; chain MAGGGAGDPGLGAAAAPAPETREHLFKVLVIGELGVGKTSIIKRYVHQLFSQHYRATIGVDFALKVLNWDSRTLVRLQLWDIAGLERFGNMTRVYYKEAVGAFVVFDISRSSTFEAVLKWKSDLDSKVHLPNGSPIPAVLLANKCDQNKDSSQSPSQVDQFCKEHGFAGWFETSAKDNINIEEAARFLVEKILVNHQSFPNEENDVDKIKLDQETLRAENKSQCC
# B8: CCDC22/CCDC93 DBD dimer E410R (Homo sapiens); chain 1 GAGAKTGAPKGSRFTHSEKFTFHLEPQAQATQVSDVPATSRRPEQVTWAAQEQELESLREQLEGVNRSIEEVEADMKTLGVSFVQAESECRHSKLSTAEREQALRLKSRAVELLPDGTANLAKLQLVVENSAQRVIHLAGQWEKHRVPLLAEYRHLRKLQDCRELES; chain 2 SPEKLGTSQLHRRKVISLNKQIAQKTKHLEELRASHTSLQARYNEAKKTLTELKTYSEKLDKEQAALEKIESKADPSILQNLRALVAMNENLKSQEQEFKAHCRERMTRLQQEIENLKAERAPRGDEKT
# B9: NUP60 240-318 (Saccharomyces cerevisiae, UniProt P39705); sequence looked up; chain TYTANTSAQSIASAKSVRSGVSKSAPSKKISNTAAALVSLLDENDSKKNNAASELANPYSSYVSQIRKHKRVSPNAAPR
# B10: SIN4 1-974 (Saccharomyces cerevisiae, UniProt P32259); chain MMLGEHLMSWSKTGIIAYSDSQSSNANICLTFLESINGINWRFHTPQKYVLHPQLHEVQYQESSSTLSTHSTTTSVNGSTTAGVGSTPNFGGNSNKSPPQFFYNISSIHWNNWFSLPGDMLAVCDELGNMTMLITGQRPDRATTYEKLTMVFQDNVYKIYNHVMPLKPVDKLKPMNIERKQTRKEYNTSILEFRWLTSSKSVIVSQFCAFDSSSNTYRSRAQQVPPYGVYHPPFIKYACLAIRKNGQIDFWYQFSNSKDHKKITLQLLDTSNQRFKDLQWLEFARITPMNDDQCMLITTYSKLSKNISFYKLHVNWNLNATKPNVLNDPSLKIQFILSTTLDPTDDEGHVLKLENLHVVSKSSIEKDPSPEILVLYNVCDTSKSLVKRYRLAPTQLSAEYLVILKPDLNIDRNNSTNQIFQSRRYNLRRHSDIVLDKKVTLITSEMFDAFVSFYFEDGTIESYNQNDWKLETERLISQSQLGKFKNIIASPLSAGFNYGKLPLPPSVEWMKVSPSMCGVIVKQYNKKWPQFYAAVQKNYADPEKDSINATALAFGYVKSLHKQISAEDLTIAAKTHILRISFLDRKRAKEFITTLLKSLYSFFNISPDAPKEIMDKIITSRPLQKIMLLQLELGSCFSQENIEEMARVILYLKNVLFAFNGVARNFHFAIEQISNNSNQQQNPKLFQTIFSKQDLIHSLIPVAKWFVKFITYLTQEILILINDPTNKEYTLVHGIFGAKMSRTLILSILNEIKKVTQIVAKFPETSYPILNESSTFLKLVLSESPVDFEKFETFLVDVNNKFIALCEQQPSQEREFSLLVKAEIPPEYAKVGDFLLQYANNAVISHANAAAVYFADTSGLKISNSEFFNPEIFHLLQPLEEGLIIDTDKLPIKNRTSKSFSKLLYDDVTCDKLSVSEISDGKLKRCSRCGSVTRAGNIISSDKTIVPTSIQTKRWPTMYTRLCICSGMLFEMDG
# B11: lpxC 1-305 (Escherichia coli, UniProt P0A725); chain MIKQRTLKRIVQATGVGLHTGKKVTLTLRPAPANTGVIYRRTDLNPPVDFPADAKSVRDTMLCTCLVNEHDVRISTVEHLNAALAGLGIDNIVIEVNAPEIPIMDGSAAPFVYLLLDAGIDELNCAKKFVRIKETVRVEDGDKWAEFKPYNGFSLDFTIDFNHPAIDSSNQRYAMNFSADAFMRQISRARTFGFMRDIEYLQSRGLCLGGSFDCAIVVDDYRVLNEDGLRFEDEFVRHKMLDAIGDLFMCGHNIIGAFTAYKSGHALNNKLLQAVLAKQEAWEYVTFQDDAELPLAFKAPSAVLA
# B12: POLDIP2 52-368 H225A (Homo sapiens, UniProt Q9Y2S7); sequence looked up; chain SSRNRPEGKVLETVGVFEVPKQNGKYETGQLFLHSIFGYRGVVLFPWQARLYDRDVASAAPEKAENPAGHGSKEVKGKTHTYYQVLIDARDCPHISQRSQTEAVTFLANHDDSRALYAIPGLDYVSHEDILPYTSTDQVPIQHELFERFLLYDQTKAPPFVARETLRAWQEKNAPWLELSDVHRETTENIRVTVIPFYMGMREAQNSHVYWWRYCIRLENLDSDVVQLRERHWRIFSLSGTLETVRGRGVVGREPVLSKEQPAFQYSSHVSLQASSGHMWGTFRFERPDGSHFDVRIPPFSLESNKDEKTPPSGLHW
# B13: NUP62 301-522 (Homo sapiens, UniProt P37198); sequence looked up; chain GIPSNTAAAVTAPPGPGAAAGAAASSAMTYAQLESLINKWSLELEDQERHFLQQATQVNAWDRTLIENGEKITSLHREVEKVKLDQKRLDQELDFILSQQKELEDLLSPLEELVKEQSGTIYLQHADEEREKTYKLAENIDAQLKRMAQDLKDIIEHLNTSGAPADTSDPLQQICKILNAHMDSLQWIDQNSALLQRKVEEVTKVCEGRRKEQERSFRITFD
# Sequence of UniProt O95210 (whole entry, looked up): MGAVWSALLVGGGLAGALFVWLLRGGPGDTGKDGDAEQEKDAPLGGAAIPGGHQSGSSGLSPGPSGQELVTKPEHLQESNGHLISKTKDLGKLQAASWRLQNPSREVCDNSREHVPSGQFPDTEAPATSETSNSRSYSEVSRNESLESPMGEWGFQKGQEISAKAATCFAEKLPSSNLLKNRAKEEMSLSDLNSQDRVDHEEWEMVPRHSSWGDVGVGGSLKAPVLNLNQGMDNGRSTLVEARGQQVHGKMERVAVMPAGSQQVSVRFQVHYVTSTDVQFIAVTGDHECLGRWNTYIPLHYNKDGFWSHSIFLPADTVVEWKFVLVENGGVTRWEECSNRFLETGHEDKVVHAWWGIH
# Sequence of UniProt Q8TCE6 (whole entry, looked up): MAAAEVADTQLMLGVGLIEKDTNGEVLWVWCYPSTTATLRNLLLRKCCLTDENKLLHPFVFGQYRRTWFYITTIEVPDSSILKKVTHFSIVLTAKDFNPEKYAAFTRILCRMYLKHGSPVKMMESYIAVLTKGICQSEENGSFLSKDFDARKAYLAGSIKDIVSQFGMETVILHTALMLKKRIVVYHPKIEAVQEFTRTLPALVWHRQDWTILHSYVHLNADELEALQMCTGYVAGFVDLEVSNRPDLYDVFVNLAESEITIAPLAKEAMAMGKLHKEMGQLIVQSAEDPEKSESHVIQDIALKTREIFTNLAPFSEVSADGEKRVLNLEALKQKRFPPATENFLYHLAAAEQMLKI
# Sequence of UniProt Q9LET0 (whole entry, unmodified, looked up): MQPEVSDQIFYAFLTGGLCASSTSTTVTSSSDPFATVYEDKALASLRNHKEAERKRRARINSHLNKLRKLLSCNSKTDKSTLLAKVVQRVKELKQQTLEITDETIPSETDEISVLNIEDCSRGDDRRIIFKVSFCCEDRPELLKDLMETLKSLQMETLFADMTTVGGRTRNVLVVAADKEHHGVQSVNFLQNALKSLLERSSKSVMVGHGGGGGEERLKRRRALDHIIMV
# Sequence of UniProt P13382 (whole entry, looked up): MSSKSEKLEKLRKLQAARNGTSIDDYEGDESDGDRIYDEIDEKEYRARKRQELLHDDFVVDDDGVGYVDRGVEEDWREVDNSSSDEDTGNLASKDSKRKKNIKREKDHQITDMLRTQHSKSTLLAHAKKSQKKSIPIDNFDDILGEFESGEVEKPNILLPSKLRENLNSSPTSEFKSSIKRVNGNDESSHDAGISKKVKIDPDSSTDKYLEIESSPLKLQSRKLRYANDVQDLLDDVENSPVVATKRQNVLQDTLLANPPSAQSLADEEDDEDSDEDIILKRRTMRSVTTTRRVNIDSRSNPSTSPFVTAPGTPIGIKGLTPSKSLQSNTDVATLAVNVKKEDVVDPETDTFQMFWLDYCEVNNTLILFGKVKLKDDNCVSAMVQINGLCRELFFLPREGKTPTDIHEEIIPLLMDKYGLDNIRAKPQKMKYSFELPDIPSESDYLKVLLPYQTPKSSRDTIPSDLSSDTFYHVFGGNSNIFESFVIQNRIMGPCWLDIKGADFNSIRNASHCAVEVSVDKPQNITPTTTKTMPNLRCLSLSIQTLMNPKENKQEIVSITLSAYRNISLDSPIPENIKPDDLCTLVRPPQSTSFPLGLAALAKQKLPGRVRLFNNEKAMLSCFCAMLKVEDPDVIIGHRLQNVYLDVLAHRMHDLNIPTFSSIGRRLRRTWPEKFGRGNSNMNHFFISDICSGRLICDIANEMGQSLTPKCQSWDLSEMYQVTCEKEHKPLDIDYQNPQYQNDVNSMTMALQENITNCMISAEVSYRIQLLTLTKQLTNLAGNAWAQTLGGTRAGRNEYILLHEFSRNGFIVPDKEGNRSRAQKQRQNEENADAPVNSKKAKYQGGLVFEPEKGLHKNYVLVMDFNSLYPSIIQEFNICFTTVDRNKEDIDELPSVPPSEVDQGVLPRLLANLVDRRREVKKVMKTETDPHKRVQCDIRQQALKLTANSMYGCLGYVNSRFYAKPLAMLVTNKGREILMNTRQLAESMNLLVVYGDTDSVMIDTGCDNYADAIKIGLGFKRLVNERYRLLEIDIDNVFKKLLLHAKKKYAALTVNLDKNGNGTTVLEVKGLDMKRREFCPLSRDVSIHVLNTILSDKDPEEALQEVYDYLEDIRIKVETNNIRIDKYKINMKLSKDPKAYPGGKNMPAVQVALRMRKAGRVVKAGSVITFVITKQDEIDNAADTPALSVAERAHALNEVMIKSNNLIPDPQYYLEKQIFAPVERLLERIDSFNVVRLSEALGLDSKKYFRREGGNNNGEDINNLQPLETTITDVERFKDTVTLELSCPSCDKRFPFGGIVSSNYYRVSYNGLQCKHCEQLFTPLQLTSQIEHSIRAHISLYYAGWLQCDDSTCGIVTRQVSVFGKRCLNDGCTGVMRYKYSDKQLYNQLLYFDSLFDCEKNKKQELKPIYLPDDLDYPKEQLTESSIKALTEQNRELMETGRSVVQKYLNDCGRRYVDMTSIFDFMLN
# Sequence of UniProt P05091 (whole entry, looked up): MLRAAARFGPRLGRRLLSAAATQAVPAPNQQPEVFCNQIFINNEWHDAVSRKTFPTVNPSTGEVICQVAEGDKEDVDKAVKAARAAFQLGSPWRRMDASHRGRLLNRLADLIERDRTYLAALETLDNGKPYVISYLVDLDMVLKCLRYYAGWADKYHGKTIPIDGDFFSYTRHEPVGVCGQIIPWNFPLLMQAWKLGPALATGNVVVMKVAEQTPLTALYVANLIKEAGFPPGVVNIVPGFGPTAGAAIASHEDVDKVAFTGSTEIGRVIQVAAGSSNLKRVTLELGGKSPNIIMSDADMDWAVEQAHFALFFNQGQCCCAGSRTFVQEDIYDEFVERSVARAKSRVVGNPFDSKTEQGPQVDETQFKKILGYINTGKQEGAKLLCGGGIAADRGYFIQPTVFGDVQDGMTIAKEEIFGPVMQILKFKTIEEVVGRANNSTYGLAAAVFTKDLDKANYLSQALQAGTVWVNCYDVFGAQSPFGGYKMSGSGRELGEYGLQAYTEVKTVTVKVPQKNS
# Sequence of UniProt Q96CV9 (whole entry, looked up): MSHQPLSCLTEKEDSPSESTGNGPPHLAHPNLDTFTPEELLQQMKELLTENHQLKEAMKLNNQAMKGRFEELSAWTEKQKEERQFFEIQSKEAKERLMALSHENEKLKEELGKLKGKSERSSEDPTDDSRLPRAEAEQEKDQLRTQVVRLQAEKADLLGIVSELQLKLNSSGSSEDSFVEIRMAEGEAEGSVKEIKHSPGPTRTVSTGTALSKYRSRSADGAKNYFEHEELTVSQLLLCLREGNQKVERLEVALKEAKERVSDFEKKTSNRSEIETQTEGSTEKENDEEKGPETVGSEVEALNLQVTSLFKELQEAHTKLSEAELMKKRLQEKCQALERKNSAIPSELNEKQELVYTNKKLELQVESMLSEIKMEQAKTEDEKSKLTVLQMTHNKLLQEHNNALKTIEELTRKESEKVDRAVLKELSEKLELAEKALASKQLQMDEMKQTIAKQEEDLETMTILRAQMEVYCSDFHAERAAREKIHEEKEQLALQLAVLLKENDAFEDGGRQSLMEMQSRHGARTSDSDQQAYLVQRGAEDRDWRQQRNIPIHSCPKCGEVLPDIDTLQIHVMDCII
# Sequence of UniProt Q9NPY3 (whole entry, unmodified, looked up): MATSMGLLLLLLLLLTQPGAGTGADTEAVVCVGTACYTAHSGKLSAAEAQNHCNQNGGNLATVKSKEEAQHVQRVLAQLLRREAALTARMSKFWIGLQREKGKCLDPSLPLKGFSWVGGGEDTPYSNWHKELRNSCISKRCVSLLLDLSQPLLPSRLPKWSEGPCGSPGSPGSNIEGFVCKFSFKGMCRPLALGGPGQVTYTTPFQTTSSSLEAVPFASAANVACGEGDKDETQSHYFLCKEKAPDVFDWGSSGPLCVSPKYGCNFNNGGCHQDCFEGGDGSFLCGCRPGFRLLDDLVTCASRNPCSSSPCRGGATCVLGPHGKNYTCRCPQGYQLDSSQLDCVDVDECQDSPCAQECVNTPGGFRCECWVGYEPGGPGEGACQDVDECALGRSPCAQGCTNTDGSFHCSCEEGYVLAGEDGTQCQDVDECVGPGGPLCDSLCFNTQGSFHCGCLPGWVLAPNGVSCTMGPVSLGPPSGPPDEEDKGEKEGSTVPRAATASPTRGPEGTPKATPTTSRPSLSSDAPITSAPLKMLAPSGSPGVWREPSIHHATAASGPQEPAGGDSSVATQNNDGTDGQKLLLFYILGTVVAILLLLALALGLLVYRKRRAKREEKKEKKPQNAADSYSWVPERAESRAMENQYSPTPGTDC
# Sequence of UniProt P37449 (whole entry, looked up): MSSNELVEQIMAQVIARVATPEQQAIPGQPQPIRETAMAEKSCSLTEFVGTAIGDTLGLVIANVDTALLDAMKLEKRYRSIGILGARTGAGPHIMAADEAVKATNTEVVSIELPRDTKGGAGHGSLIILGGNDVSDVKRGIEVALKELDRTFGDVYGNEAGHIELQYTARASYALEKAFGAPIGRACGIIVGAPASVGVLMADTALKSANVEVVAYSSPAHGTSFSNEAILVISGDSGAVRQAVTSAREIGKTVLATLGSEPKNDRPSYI
Molecule,tested on,test,test system,setting,scale,measurement,result
B1 (AIR2 1-223 C84S/C104S),"PAP2 D236A/D238A (Saccharomyces cerevisiae, UniProt P53632)",HDX-MS,,,,binding,binds
"dnaJ2 (Thermus thermophilus, UniProt Q56237)","PhoA mature , unfolded 23-471 (Escherichia coli, UniProt P00634)",NMR titration,,,,binding,binds
EGKAPKRRQDDEGLGSKRPKME (XRCC6 537-554 (Canis lupus familiaris)),KPNA2/KPNB1 (Homo sapiens),pull-down,,,,binding,binds
B2 (POMP),"PSMA4 (Homo sapiens, UniProt P25789)",cryo-EM,,,,binding,binds
SVWLRKETRV,human SCRIB PDZ3-4 tandem (MBP fusion),automated holdup,"peptide, crude extract","concentration not given, corrected by standard peak, unit not given","baseline: biotin control resin, higher = stronger binding",binding intensity,0.725
B3 (HY5),"bHLH107 S62D/S72D (Arabidopsis, UniProt Q9LET0)",pull-down,,,,binding,binds
"RXRA (Homo sapiens, UniProt P19793)","PIK3R1 (Bos taurus, UniProt P23727)",pull-down,,with: 9cRA 1 µM,,binding,binds
"HEEWEMVPRHS (STBD1 200-210 (Homo sapiens, UniProt O95210))","RB1CC1 1490-1594 (Homo sapiens, UniProt Q8TDY2)",SEC,,,,binding,binds
KBTBD2 S252D (Homo sapiens) (sequence not shown),"CUL3 (Homo sapiens, UniProt Q13618)",cryo-EM,,,,binding,binds
B4 (Pri1),"POL1 (Saccharomyces cerevisiae, UniProt P13382)",mass photometry,,,,binding,binds
B5 (IGFBP7 30-159 Q150A),"CD93 25-347 (Homo sapiens, UniProt Q9NPY3)",ITC,,25 °C,,binding,binds
QGRWDHETIV,human MAGI1-2/6 PDZ construct (MBP fusion),automated holdup,"peptide, crude extract","concentration not given, corrected by standard peak, unit not given","baseline: biotin control resin, higher = stronger binding",binding intensity,0.17
"KPNA6 (Homo sapiens, UniProt O60684)","TF S685D (Homo sapiens, UniProt P02787)",GST pull-down,,,,binding,binds
B6 (PRDX6),"ALDH2 (Homo sapiens, UniProt P05091)",co-IP,,,,binding,binds
B7 (RAB32 Q85L),"OPTN (Homo sapiens, UniProt Q96CV9)",pull-down,,,,binding,binds
B8 (CCDC22/CCDC93 DBD dimer E410R),"DENND10 (Homo sapiens, UniProt Q8TCE6)",pull-down,,,,binding,binds
B9 (NUP60 240-318),NUP85/SEH1 Nup85 1-564 (Saccharomyces cerevisiae),pull-down,,,,binding,binds
B10 (SIN4 1-974),"GAL11 (Saccharomyces cerevisiae, UniProt P19659)",cross-linking,,,,binding,binds
"FTTVDFSSISTPHYEDIPFTRT (PPARG residues 65-86 (Homo sapiens); N-acetyl, pT75)","PIN1 (Homo sapiens, UniProt Q13526)",NMR,peptide,,,binding,binds
B11 (lpxC 1-305),"lapB 21-389 G121A (Escherichia coli, UniProt P0AB58)",pull-down,,,,binding,binds
B12 (POLDIP2 52-368 H225A),"CLPX/CLPP CLPP 14-mer, CLPX hexamer, ATPγS-bound 65-633 (Homo sapiens)",co-IP,,,,binding,binds
"PduD (Salmonella enterica, UniProt O31041)","PduB (Salmonella enterica Typhimurium LT2, UniProt P37449)",cross-linking,,,,binding,binds
SEEEFFDAHE (Pitpnm1 residues 346-355 (Mus musculus)),"Vapb 1-125 (Mus musculus, UniProt Q9QY76)",X-ray crystallography,peptide,,,binding,binds
B13 (NUP62 301-522),"FUS (Homo sapiens, UniProt P35637)",pull-down,,,,binding,binds

# A few entries again:
Molecule,tested on,test,test system,setting,scale,measurement,result
"PduD (Salmonella enterica, UniProt O31041)","PduB (Salmonella enterica Typhimurium LT2, UniProt P37449)",cross-linking,,,,binding,binds
"FTTVDFSSISTPHYEDIPFTRT (PPARG residues 65-86 (Homo sapiens); N-acetyl, pT75)","PIN1 (Homo sapiens, UniProt Q13526)",NMR,peptide,,,binding,binds
"KPNA6 (Homo sapiens, UniProt O60684)","TF S685D (Homo sapiens, UniProt P02787)",GST pull-down,,,,binding,binds
